Assay results of several laboratories.
Protocols differ between the studies behind these lines. “And” joins repeats or separate records; there may be more than shown. ± marks the error that the study gave.

For `C=CC(=O)N1[C@@H](c2ccc3c(c2)OCO3)c2[nH]c3ccccc3c2C[C@H]1C(=O)N1CCN(C)CC1`, the relative co-enrichment was 113% (human cyclin E1 N112C-3xFLAG:CDK2; co-IP with TMT proteomics, item: DDX5; concentration not given, P17844; relative to: wild type DMSO).
`O=c1c(Oc2ccccc2)c(C(F)(F)F)oc2c(O)c(O)ccc12` gave a di-ubiquitin formed of 62% (ROC1-CUL1 E3 subcomplex; di-ubiquitin synthesis; 1 µM; relative to: input).
`Cc1ncsc1-c1ccc(C(C)NC(=O)C2CC(O)CN2C(=O)C(NC(=O)CCCCCCCCCCN2CCCC(Nc3ncc(Cl)c(Nc4ccccc4S(=O)(=O)C(C)C)n3)C2)C(C)(C)C)cc1` (stereo not drawn) — result for “log2 fold change”: -1.98 (22Rv1; RNA-seq, item: ZNF347 mRNA; concentration not given; relative to: DMSO).
With `C[n+]1ccc(/C=N/NC(=O)c2cccc(C(=O)N/N=C/c3cc[n+](C)cc3)c2)cc1` the ΔTm was 1.9 ± 0.3 °C (22CTA telomeric G4-DNA antiparallel; FRET melting; 1 µM, K10 buffer, DNA 0.2 µM).
`c1ccc(-c2n[nH]cc2-c2ccnc3ccccc23)nc1` — result for “log2 fold change”: 0.08 (HRK1 (Candida albicans); kinase binding, MIB/MS competition; Candida albicans lysate; 1 µM; relative to: DMSO).
With `Nc1ncc(-c2cc(-c3cnn(CC(F)(F)F)c3)ncc2F)nc1C(=O)NC1CNCC(F)C1` (stereo not drawn) the remaining binding was 99% (MAP4K5; KINOMEscan; 1 µM; relative to: DMSO control).
With `C[n+]1ccc(/C=N/NC(=O)c2cccc(C(=O)N/N=C/c3cc[n+](C)c4ccccc34)n2)c2ccccc21` the delta Tm was 35 °C (G-quadruplex DNA myc22 parallel; UV melting; 6 µM, K10 buffer, added: DNA 3 µM).
`CO[C@@H]1[C@@H](OC(N)=O)[C@@H](O)[C@H](Oc2ccc3c(O)c(NC(=O)c4ccc(O)c(CC=C(C)C)c4)c(=O)oc3c2C)OC1(C)C` gave a colony survival of 0.326% (DLD-1 BRCA2-/-; 250 µM, mean of replicates A, B; relative to: untreated).
`COC1OC(C)C(OS(=O)(=O)O)C(OC2OC(C)C(OS(=O)(=O)O)C(OC3OC(C)C(OS(=O)(=O)O)C(OC4OC(C)C(OS(=O)(=O)O)C(OC5OC(C)C(OS(=O)(=O)O)C(OC6OC(C)C(OS(=O)(=O)O)C(OC7OC(C)C(OS(=O)(=O)O)C(OC8OC(C)C(OS(=O)(=O)O)C(OC9OC(C)C(OS(=O)(=O)O)C(OC%10OC(C)C(OS(=O)(=O)O)C(OS(=O)(=O)O)C%10O)C9O)C8O)C7O)C6O)C5O)C4O)C3O)C2O)C1O` (stereo not drawn) — result for “activated partial thromboplastin time”: 42 ± 0.5 s (human plasma; 128 µg/mL).
The %ΔTGI of `Nc1nc2cc(CC[C@H]3C[C@@H](n4ccc5c(N)ncnc54)[C@H](O)[C@@H]3O)ccc2cc1Br` is reported as 84.5% (A-427 xenograft, mouse; 1.0 mg/kg/day, day 34).
`C[n+]1ccc(/C=N/NC(=O)c2cncc(C(=O)N/N=C/c3cc[n+](C)c4ccccc34)n2)c2ccccc21` gave a delta Tm of 28.6 °C (G-quadruplex DNA myc22 parallel; UV melting; 6 µM, K10 buffer, added: DNA 3 µM).
With `O=C(NC1CCOCC1)c1ccc(C2CCCCC2)cc1` the hepatic clearance was 53 mL/min/kg (liver microsome stability; rat liver microsomes; 1 µM).
`C=CC(=O)Nc1cccc(Cn2ncc3cnc(Nc4cnn(CCOC)c4)nc32)c1`: “percent of control” 47% (ROCK2 human; binding, KINOMEscan; 100 nM; lower = stronger binding).
The ΔTm of `CC[n+]1cccc2cc(/C=N/NC(=O)c3cc(C(=O)N/N=C/c4ccc5c(ccc[n+]5CC)c4)ncn3)ccc21` is reported as 5.5 ± 1.1 °C (22CTA telomeric G4-DNA antiparallel; FRET melting; 1 µM, K10 buffer, DNA 0.2 µM).
For `COC1OC(C)C(OC2OC(C)C(O)C(OC3OC(C)C(OC4OC(C)C(O)C(OC5OC(C)C(OC6OC(C)C(O)C(OC7OC(C)C(OC8OC(C)C(O)C(OS(=O)(=O)O)C8OS(=O)(=O)O)C(OS(=O)(=O)O)C7OS(=O)(=O)O)C6OS(=O)(=O)O)C(OS(=O)(=O)O)C5OS(=O)(=O)O)C4OS(=O)(=O)O)C(OS(=O)(=O)O)C3OS(=O)(=O)O)C2OS(=O)(=O)O)C(OS(=O)(=O)O)C1OS(=O)(=O)O` (stereo not drawn), “activated partial thromboplastin time” read 102 s and 103 s (human plasma; 32 µg/mL).
`NS(=O)(=O)c1cccc(-c2ccc([C@H]3[C@@H](F)[C@@H](F)C[C@@H](F)[C@H]3F)cc2)c1` has a hepatic clearance of 12 mL/min/kg (liver microsome stability; cynomolgus liver microsomes; 1 µM).
With `O=C(N/N=C/c1cc[n+](Cc2ccccc2)c2ccccc12)c1cncc(C(=O)N/N=C/c2cc[n+](Cc3ccccc3)c3ccccc23)n1` the ΔTm was 16.8 ± 0.2 °C (22CTA telomeric G4-DNA antiparallel; FRET melting; 1 µM, K10 buffer, DNA 0.2 µM).
`COC1OC(C)C(OC2OC(C)C(OS(=O)(=O)O)C(OC3OC(C)C(OC4OC(C)C(OS(=O)(=O)O)C(OC5OC(C)C(OC6OC(C)C(OS(=O)(=O)O)C(OC7OC(C)C(OC8OC(C)C(OS(=O)(=O)O)C(OC9OC(C)C(OC%10OC(C)C(OS(=O)(=O)O)C(OC%11OC(C)C(OC%12OC(C)C(OS(=O)(=O)O)C(OS(=O)(=O)O)C%12O)C(OS(=O)(=O)O)C%11O)C%10O)C(OS(=O)(=O)O)C9O)C8O)C(OS(=O)(=O)O)C7O)C6O)C(OS(=O)(=O)O)C5O)C4O)C(OS(=O)(=O)O)C3O)C2O)C(OS(=O)(=O)O)C1O` (stereo not drawn): “activated partial thromboplastin time” 47.7 ± 1 s (human plasma; 128 µg/mL).
Under “log2 fold change”, `COC1CN([C@H]2CC[C@H]([C@@]3(C)Oc4c(Cl)cc(C(=O)NCc5c(SC)cc(C)[nH]c5=O)c(C)c4O3)CC2)C1` is recorded as 1.97 (RNA-seq, item: RAP1GAP mouse homolog; mouse, HT-1376 xenograft, whole blood; dose not given; relative to: vehicle).
With `C[n+]1cc(/C=N/NC(=O)c2cccc(C(=O)N/N=C/c3cc4ccccc4[n+](C)c3)c2)cc2ccccc21` the ΔTm was 8.1 ± 0.6 °C (22CTA telomeric G4-DNA antiparallel; FRET melting; 1 µM, K10 buffer, DNA 0.2 µM).
The bacterial load of `C=C(NC(=O)c1csc(-c2nc3c(cc2O)-c2nc(cs2)C(=O)NC(C(C)O)C(=O)NC(=C(C)OC)c2nc(cs2)C(=O)NC2c4nc(cs4)C(=O)NC(COC(=O)c4c5c6c(cccc6n4O)COC(=O)C(OC4CC(C)(O)C(N(C)C)C(C)O4)C2OC5)c2nc-3cs2)n1)C(N)=O` (stereo not drawn) is reported as 5 log CFU/g (Streptococcus pneumoniae; -4, immunocompromised mice, lung infection, lung; 2 mg/kg/day once daily, 24 h post-dose).

For quick reference, copied from above:
With `C[n+]1ccc(/C=N/NC(=O)c2cccc(C(=O)N/N=C/c3cc[n+](C)cc3)c2)cc1` the ΔTm was 1.9 ± 0.3 °C (22CTA telomeric G4-DNA antiparallel; FRET melting; 1 µM, K10 buffer, DNA 0.2 µM).
`COC1OC(C)C(OS(=O)(=O)O)C(OC2OC(C)C(OS(=O)(=O)O)C(OC3OC(C)C(OS(=O)(=O)O)C(OC4OC(C)C(OS(=O)(=O)O)C(OC5OC(C)C(OS(=O)(=O)O)C(OC6OC(C)C(OS(=O)(=O)O)C(OC7OC(C)C(OS(=O)(=O)O)C(OC8OC(C)C(OS(=O)(=O)O)C(OC9OC(C)C(OS(=O)(=O)O)C(OC%10OC(C)C(OS(=O)(=O)O)C(OS(=O)(=O)O)C%10O)C9O)C8O)C7O)C6O)C5O)C4O)C3O)C2O)C1O` (stereo not drawn) — result for “activated partial thromboplastin time”: 42 ± 0.5 s (human plasma; 128 µg/mL).
